Measurements of several laboratories.
Parts stem from different laboratories: compare values within a part only.

Sample 1 — technique: protein binding microarray; molecule type: double-stranded DNA, one strand shown; medium: in vitro; tested at: not given; relative to: not given; direction: higher = stronger binding; endpoint: E-score
Target: Histone acetyltransferase KAT6A, both winged helices, GST fusion (KAT6A, Homo sapiens, UniProt Q92794, residues 1-181)
Notes: 8-mer, flanks averaged, mean of 2 arrays, mostly near background
Residues (chain): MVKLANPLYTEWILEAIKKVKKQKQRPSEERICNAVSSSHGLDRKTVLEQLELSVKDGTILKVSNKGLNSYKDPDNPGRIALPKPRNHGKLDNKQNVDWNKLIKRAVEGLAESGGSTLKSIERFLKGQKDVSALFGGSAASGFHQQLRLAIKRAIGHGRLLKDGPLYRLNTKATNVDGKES
ACGGCATA: 0.291
ACTAAAGG: -0.167
AAATAGAC: -0.1
ATCGTAAT: 0.0476
ACAGTACT: -0.196
CAGTGATG: -0.102
ACCAGATA: -0.0982
AATTTTGG: -0.0709
CTTATTCC: -0.112
GACCGCGA: 0.266
CCGAGACA: -0.0832
CCAAACTC: -0.18
CGATATCC: -0.0741
CTGGATCC: -0.0318
CGAGTCGA: -0.0453
CTCCCGCA: 0.29
GTTGCAAC: 0.029
CTGTCTAC: -0.201
GGAACGAC: -0.0262
CATCGGTA: 0.0712
GGTGCATA: -0.029
AAGTTGGC: -0.103
CGCCTGAC: 0.0645
ACCTTGCC: 0.0535
AGTCGTCC: -0.0713

Sample 2 — technique: RNAcompete; molecule type: RNA; medium: in vitro; tested at: 20 nM; notes: 7-mer, probes averaged, single round; relative to: mean of 7-mers; direction: higher = stronger binding; endpoint: 7-mer Z-score
Target: PABPC1L2, full length, GST fusion (mouse, UniProt A0ABA7IW68)
CUGAUCC: -0.382
AACUCGC: -0.144
AUCCAGA: -0.0627
ACCGUGG: 0.204
GCAGAUA: -0.0138
GAAGACG: 0.111
CUCAAGU: -0.3
CAUCCGU: -0.286
AUGCCAG: -0.139
UUUUUUA: 0.00798
AUAGUGA: -0.175
UAUGUCA: -0.258
AUCUGUC: -0.331
GAGAUGU: -0.0554
AGUGCCG: -0.202
AACGCAA: 0.265
AAACAAG: 3.78
AACGGGA: 0.418
CCGAACA: -0.104

Sample 3 — technique: protein-binding microarray; molecule type: double-stranded DNA, one strand shown; medium: in vitro; tested at: 250 nM; notes: 60-bp whole probe; together with: salmon DNA 0.4 mg/ml; relative to: random background probes; direction: higher = stronger binding; endpoint: log fluorescence; all sequences stand within: GCCTAGCAC … GTCTTGATTCGCTTGACGCTGCTG
Target: Interferon regulatory factor 5, full length, phosphomimetic (IRF5, Homo sapiens, UniProt Q13568-2, residues 1-514, K96S/S451D/S453D/S456D/S462D)
TTAGGTATCGGGTATCGGCTAGTGCTA: 4.57 z-score
GACGTTATCGGGTATCGAGACGTGCTA: 3.48 z-score
TACGGTATCCTTCTCCTGACGTGCTAG: 0.573 z-score
TCATATTTAAGAACTATGACTGTGCTA: 0.419 z-score
TCATCCATGGGTATGGCACTGTGCTAG: -0.00759 z-score
GACGATTCCAGTTCCGAGACGTGCTAG: 0.263 z-score
TTAGGCCTGGACTATCGGTTAGTGCTA: 4.79 z-score
AGAGATGTGGGACTCACCTAGTGCTAG: -0.464 z-score
GACGGTATCCTTTTCCTGATGTGCTAG: 0.312 z-score
TAAGGTTTCGGGTATCGGTTAGTGCTA: 8.57 z-score
TTAGATGTCAGTCTCGATTAGTGCTAG: 0.868 z-score
GACTGACTGGGGACTGGGGACGTGCTA: -0.325 z-score
GGCGGTATCGACTATCGGGACGTGCTA: 3.8 z-score
TTAGATTTCGGGATTCGATTAGTGCTA: 3.63 z-score
GACGGGCTCCTTTTCCTGACGTGCTAG: -0.669 z-score
TTTGGTTTCGGTCTCGGTTAGTGCTAG: 11.3 z-score
TTAGGTATCAGACTGGGTTAGTGCTAG: 0.0138 z-score
GACGGTATCGACTATCGGAACGTGCTA: 4.87 z-score
ATATATATGAATATATATTAGTGCTAG: 0.554 z-score
GACGAGCTGAGTCTCGAGACGTGCTAG: -0.521 z-score
GACGGTATCGGTATCGGCACGTGCTAG: 6.48 z-score
GTAGATATCGGGTTTCGATTAGTGCTA: 7.62 z-score
TTAGAACTGAGTATCGATTTGTGCTAG: 5.83 z-score
GACGGTTCCGGTTTCGGGCCGTGCTAG: 4.08 z-score
GATGGCCTCTTGCTCAGCCCGTGCTAG: -0.807 z-score

Sample 4 — technique: RNA Bind-n-Seq; molecule type: RNA; medium: in vitro; tested at: 100 nM; relative to: input RNA pool; direction: higher = stronger binding; endpoint: bound/input enrichment
Target: RING finger protein unkempt homolog, zinc fingers 1-6, SBP tag (UNK, Homo sapiens, UniProt Q9C0B0, residues 30-357)
UniProt Q9C0B0, sequence (30-357, looked up): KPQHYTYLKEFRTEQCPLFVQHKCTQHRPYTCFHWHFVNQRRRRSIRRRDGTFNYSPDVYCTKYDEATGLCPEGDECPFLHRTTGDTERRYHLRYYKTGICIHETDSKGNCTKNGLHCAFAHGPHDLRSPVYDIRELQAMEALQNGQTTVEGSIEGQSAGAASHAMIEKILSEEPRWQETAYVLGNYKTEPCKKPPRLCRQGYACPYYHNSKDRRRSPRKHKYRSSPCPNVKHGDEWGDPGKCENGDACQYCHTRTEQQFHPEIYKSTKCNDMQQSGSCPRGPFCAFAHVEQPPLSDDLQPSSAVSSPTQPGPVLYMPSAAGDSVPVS
Notes: RNA with constant flanks, vertebrate orthologous sites, ends assumed
All sequences stand within: GGGAGUUCUACAGUCCGACGAUC … CAACAGAGGAUUGAGCAUCA
CUCUCUGAGCGAUAGUAUUCCAUCUGUAGCAGAUUCGCACUCCAGCCAUUUCUCUGAGUUCAGUUGCUCAGAUAUGGAAAGUAUGAAAACUUCCUGUAGCCAUGGUUCCAGCGACUAUCA: 0.277 ratio
ACAGAAGAAGAGCUCACAACUCAGAAGGAACUAUUAGAAGAGUUUCUAAUGGCUGAAAGCUAGGAAAAAUUAGGACAAUUUUACAAAUGAGCCAUCAAAACAAAACAAAAAAGAUAUGGA: 0.995 ratio
GUGUUGUGUACAGGGCAUUCUCUGUACUAGUUUGUUGUGGUUAUAAAACAGUUAGCAAAGCAGCCUACAUUUGUAUUUAUUUUCUAUUCCAUACUUCUGUGCCCCAUGUGUUUUUUCUUU: 1.47 ratio
GUCAUCUGACUGGAUGAAGACUGUUCCAAGUUACAACCAAACAAAUAGCUCCAUGGACUUUAGAAAUUAUAUGAUGAGGGAUGAGACUCUGGAACCACUGCCUAAAAACUGGGAAAUGGC: 1.35 ratio
AAAGAAAAAAUCAGUCCUAUAUAAUGAUUGAUCCCAUAAUCAAAAUCCCUAGCAAUCUAUUCGAAAUCUUACUUUUCUUACUCAAGUUCAAUGUUUUGGUCAUAAUUAGUUCACAAUUAA: 2.18 ratio
UGUCUGCCUCAUUCUAAAAUUUACACAGUAGACCAUUUGUCAUCCAUGCUGUCCCACAGAUAGUUUUUUUGUUUACGAUUUAUGACAGGUUUAUGUUACUUCUAUUUGAAUUUCUAUAUU: 1.62 ratio
UCAUGGCCGCUUCUUACCUACCUCAAUGAGGUAAAGUCUCCCUUGGCAUUAGGUUGGUACUAGAGCCAGCCAUACCUAAGCAGUCUUUUCACAUUUCAUUUCUUUCACACUCGUCAUCUU: 0.756 ratio
UAUUAGUGUCAUACCAGCAUAUUAACCUCUCGUCUGUGCACAGCUUCAAAUGUUACCGUCUAGUUAGAUUUUUAUUUAAAAUAUGAAAAACUGCUUUUCCCAAGACGUUUUUUAAAAAAC: 1.44 ratio
GGCAUCUGGUGACAUUUGGCCUGGUCUUUCAGCAUAUGAUAAUAGUCCAAGAUCACCUCACAGCCCUUCUCCUGUUGCUACACCACCUAGUCAGAGUUCAUCUUGUUCUGAUGCUCCCAU: 0.461 ratio
UACAAUCUUACACUUAAACUGGUAUUUUCCAACAAUAGGAGAUUUUCUUUUUUUACAGUUUAGUGUAUCUGGUUUCUACAUGGAAGACUAAACUCGUGCUUAUUGCUAAAUGUGGUCUUU: 0.314 ratio
GUCUAAGAGUUGGAUACUUUUUGUUCCUUUUGGUCUCUGUUAACCUAUCUAUUGCUCUAUUAGUCCCUUUCUUGCACACGUAUUAUACUUUAAAAUUGUGUUUAUGUAAACUGGACUGAU: 0.587 ratio

Sample 5 — technique: RNA Bind-n-Seq; molecule type: RNA; medium: in vitro; tested at: 200 nM; notes: whole 134-nt RNA, ends assumed; together with: 150 mM KCl; relative to: input library; direction: higher = stronger binding; endpoint: log2 enrichment
Target: Fragile X messenger ribonucleoprotein 1, C-terminal low-complexity region (Fmr1, Mus musculus, UniProt P35922)
All sequences stand within: GGGAGUUCUACAGUCCGACGAUC … UGGAAUUCUCGGGUGUCAAGG
CCUCAAGUCCUGUGCUACACAUCGUAUGUACCGAAUCGGUUUUUGGAGGUGGAAAGUAUUAUGUUACGCCGUUCGGAUCUGCACUUCCAG: 0.297
CACAGACAACUCGCACCCACACAGACACAGAGGGAAGGGGUUGGGAUGGGGACAGGGUGCACAGCAGGGCGGGGUAGGACCCCAGCCCCU: 1.37
GGAUCAAAGCAAGUUGGAGAAACAUCAGCACCUGGAGACACCUUAGAUGGCACACCUCGUACUCUCAAUACUGUCUUUGAUUUCCCACCA: 0.429
UGGGAAGUGGAUUUUGUUUAUUUUUUUAGCUCAUUUCCAGGGGUGGGAAUUUUUUUUUAAUAUGUGUCAUGAAUAAAGUUGUUUUUGAAA: -0.262
UGGCAGGAAAGAGUUCCUAGAGAGAGAAGACAAAGACAGUCUGUGUUGCAAAAGAAGCCCAAGGCUGAAGAUUUAAGAACUGAAUGUGCA: -0.969
AGUCCUGUGCUACACAUCGUAUGUACCGAAUCGGGGAAAAAGGAAAAAGGGAAAAAGGAAAGUAUUAUGUUACGCCGUUCGGAUCUGCAC: -0.417
UCAGUGUCUUACCCUGAAGAGAAAGUUGUAGGUUGGCUGUUGAAAUUCAUUCCUUAGAUAUGAUCAGUUUGAUUGCCCGGCUUUAUUGCC: -1.59
CCAGAGCCAGAGAGCUUGGGCCCUGGGACGCCUGGGUUCCCCGAGCAGGAGGAAGACGAACUUCACCGCACCCUGGGCGUGGAGCGGUUU: -0.898
CACAGACAACACGCACCCACACAGACACUGAGGGAAGGGGUUGGGAUGGGGACAGGGUGCACAGCAGGGCGGGGUAGGACCCCAGCCCCU: 1.28
AAGUCCUGUGCUACACAUCGUAUGUACCGAAUCGGGAAAGGGAGGGAAAAAAAGGGAAAGUAUUAUGUUACGCCGUUCGGAUCUGCACUU: 0.268
CCUGUGCUACACAUCGUAUGUACCGAAUCAAACCCCCCCAAACCCCCCCAAACCCCCAAAAAAGUAUUAUGUUACGCCGUUCGGAUCUGC: 0.181
CACAGACAACACGCACCCACACAGACACAGAGGGAAGGGGUUGGGAUGGGGACAGGGUGCACAGCAGGGCGGGGUACGACCCCAGCCCCU: 1.26
GCAGGAAGUAAAAACAAAUGGAAAUGCUUCGGAUAGUGGCGGGGGUGGGGGUUGCUAAGGAAAGGGUGGGAUGGGAGUGGGUAAAGAGUU: -0.0409
CCUCAAGUCCUGUGCUACACAUCGUAUGUACCGAAUCGGCCGGGCCGGCCGGGAAAGUAUUAUGUUACGCCGUUCGGAUCUGCACUUCCA: -0.39

A few entries again (sample 4):
ACAGAAGAAGAGCUCACAACUCAGAAGGAACUAUUAGAAGAGUUUCUAAUGGCUGAAAGCUAGGAAAAAUUAGGACAAUUUUACAAAUGAGCCAUCAAAACAAAACAAAAAAGAUAUGGA: 0.995 ratio
GUGUUGUGUACAGGGCAUUCUCUGUACUAGUUUGUUGUGGUUAUAAAACAGUUAGCAAAGCAGCCUACAUUUGUAUUUAUUUUCUAUUCCAUACUUCUGUGCCCCAUGUGUUUUUUCUUU: 1.47 ratio
GUCAUCUGACUGGAUGAAGACUGUUCCAAGUUACAACCAAACAAAUAGCUCCAUGGACUUUAGAAAUUAUAUGAUGAGGGAUGAGACUCUGGAACCACUGCCUAAAAACUGGGAAAUGGC: 1.35 ratio
AAAGAAAAAAUCAGUCCUAUAUAAUGAUUGAUCCCAUAAUCAAAAUCCCUAGCAAUCUAUUCGAAAUCUUACUUUUCUUACUCAAGUUCAAUGUUUUGGUCAUAAUUAGUUCACAAUUAA: 2.18 ratio
UGUCUGCCUCAUUCUAAAAUUUACACAGUAGACCAUUUGUCAUCCAUGCUGUCCCACAGAUAGUUUUUUUGUUUACGAUUUAUGACAGGUUUAUGUUACUUCUAUUUGAAUUUCUAUAUU: 1.62 ratio
UCAUGGCCGCUUCUUACCUACCUCAAUGAGGUAAAGUCUCCCUUGGCAUUAGGUUGGUACUAGAGCCAGCCAUACCUAAGCAGUCUUUUCACAUUUCAUUUCUUUCACACUCGUCAUCUU: 0.756 ratio
UAUUAGUGUCAUACCAGCAUAUUAACCUCUCGUCUGUGCACAGCUUCAAAUGUUACCGUCUAGUUAGAUUUUUAUUUAAAAUAUGAAAAACUGCUUUUCCCAAGACGUUUUUUAAAAAAC: 1.44 ratio
GGCAUCUGGUGACAUUUGGCCUGGUCUUUCAGCAUAUGAUAAUAGUCCAAGAUCACCUCACAGCCCUUCUCCUGUUGCUACACCACCUAGUCAGAGUUCAUCUUGUUCUGAUGCUCCCAU: 0.461 ratio
